Published values of several laboratories.
Each line is one published result; not all experiments were run side by side. “And” joins repeats or separate records; there may be more than shown. Numbers after ± are the reported error.
Sequence of UniProt P05177 (whole entry, looked up): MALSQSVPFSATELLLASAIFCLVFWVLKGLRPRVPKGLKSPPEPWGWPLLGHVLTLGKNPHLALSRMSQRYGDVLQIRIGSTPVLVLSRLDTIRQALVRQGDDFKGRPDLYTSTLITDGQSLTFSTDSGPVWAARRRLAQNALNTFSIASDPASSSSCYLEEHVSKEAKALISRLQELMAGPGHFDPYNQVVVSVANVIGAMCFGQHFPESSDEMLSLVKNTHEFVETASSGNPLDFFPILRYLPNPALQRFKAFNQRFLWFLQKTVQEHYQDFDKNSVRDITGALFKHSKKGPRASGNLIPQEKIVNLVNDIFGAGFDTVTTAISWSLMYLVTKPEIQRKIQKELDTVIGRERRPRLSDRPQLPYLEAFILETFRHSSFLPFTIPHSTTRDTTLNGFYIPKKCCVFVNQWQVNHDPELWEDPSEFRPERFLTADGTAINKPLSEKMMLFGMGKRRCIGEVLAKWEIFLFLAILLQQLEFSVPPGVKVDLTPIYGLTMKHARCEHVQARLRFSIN
Sequence of UniProt P04062 (whole entry, unmodified, looked up): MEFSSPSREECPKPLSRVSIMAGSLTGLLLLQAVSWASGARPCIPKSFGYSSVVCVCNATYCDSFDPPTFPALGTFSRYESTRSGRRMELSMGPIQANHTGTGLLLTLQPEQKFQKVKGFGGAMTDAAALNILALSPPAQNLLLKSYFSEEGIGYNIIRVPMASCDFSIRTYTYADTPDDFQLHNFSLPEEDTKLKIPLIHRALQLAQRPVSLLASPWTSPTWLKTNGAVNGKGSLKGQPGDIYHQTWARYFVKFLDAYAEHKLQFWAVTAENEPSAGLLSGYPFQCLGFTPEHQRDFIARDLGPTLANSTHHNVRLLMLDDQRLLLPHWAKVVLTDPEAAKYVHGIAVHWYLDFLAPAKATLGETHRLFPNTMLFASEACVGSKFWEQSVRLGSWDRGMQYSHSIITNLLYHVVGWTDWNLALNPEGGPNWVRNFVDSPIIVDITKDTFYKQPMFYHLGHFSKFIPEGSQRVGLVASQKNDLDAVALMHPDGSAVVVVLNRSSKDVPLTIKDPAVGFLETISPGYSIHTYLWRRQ

The viability of `CN1CCCNC(=O)c2cccc(c2)C(=O)NCCCN(C)CCCNc2cccc3c2C(=O)c2cccc(c2C3=O)NCCC1` is reported as 78.3% (mouse bone marrow cells; CCK-8; 1.5 µM, 48 h; baseline: untreated).
For `COc1ccc2c(c1)C(C)(C)C(/C=C/C1=C(Oc3ccc(C(=O)NCCCCOc4cc(CN(Cc5ccccn5)Cc5ccccn5)cc(CN(Cc5ccccn5)Cc5ccccn5)c4)cc3)C(=C/C=C3/N(CCCCS(=O)(=O)[O-])c4ccc(OC)cc4C3(C)C)CCC1)=[N+]2CCCCS(=O)(=O)[O-].O=[N+]([O-])[O-].O=[N+]([O-])[O-].[99Tc+].[C-]#[O+].[C-]#[O+].[C-]#[O+].[Zn+2]`, the tissue uptake was 62.9 %ID/g (Staphylococcus aureus; BALB/c mice, bacterial myositis, gall bladder; 12 h).
`CC(C)(O)c1ncc([S@](N)(=O)=NC(=O)Nc2c3c(cc4c2CCC4)CCC3)s1` — result for “subjects with adverse events”: 86% (refers to: Gastrointestinal disorders; healthy human volunteers; oral, 50 mg twice daily, 14 days, enteric-coated tablet).
`N#C[C@@H]1CC(F)(F)CN1C(=O)CNC(=O)c1ccnc2c(NC(=O)[C@@H](N)CCCCNC(=O)CCOCCOCCOCCOCCOCCOCCNC(=O)CN3CCN(CC(=O)[O-])CCN(CC(=O)[O-])CCN(CC(=O)[O-])CC3)cccc12.[177Lu+3]` gave a tracer uptake of 0.04 %ID/g (U-87 MG tumour model; host not given, muscle; 24 h, tumour-bearing).
`CCCCCCCN1C[C@H](O)[C@@H](O)[C@H](O)[C@@H]1CO` has an IC50 of 700 µM (GBA1 (Homo sapiens, UniProt P04062, R534H); inhibitor, 4MU-β-D-glucopyranoside; added: 4MU-β-D-glucopyranoside).
`N#C[C@@H]1CC(F)(F)CN1C(=O)CNC(=O)c1ccnc2c(NC(=O)[C@H](CCCCNC(=O)CCOCCOCCOCCOCCOCCOCCNC(=O)CN3CCN(CC(=O)[O-])CCN(CC(=O)[O-])CCN(CC(=O)[O-])CC3)NC(=O)CCCc3ccc(I)cc3)cccc12.[177Lu+3]` gave a tracer uptake of 21.4 %ID/g (U-87 MG tumour model; host not given, blood; 1 h, tumour-bearing).
With `O=C1NC2(CC2)COc2ncc(F)cc2[C@H]2COCCN2c2ccn3ncc1c3n2` the revertant colonies was 9 ± 4 revertants/plate (Salmonella typhimurium; Ames test; TA1535; 150 µg/plate, 48 h, added: rat liver S9).
`CC(C)OCCOCc1ccc(OCC(O)CN(N=O)C(C)C)cc1` (centres unmarked): “revertant fold increase” 3.4 fold (Salmonella typhimurium; Ames test; TA100; 5000 µg/plate, 30 % hamster S9; baseline: solvent control).
The SUV of `O=C(Nc1cnccc1-c1ccc([18F])nc1)c1ccnc(NC(=O)C2CC2)c1` is reported as 0.25 ± 0.13 (FVB/NJ mouse, both sexes, brain; intravenous, 3 min post-injection, added: P-gp inhibitor tariquidar 15 mg/kg iv).
The relative translation of `O=C(Nc1[nH]nc(-c2ccccn2)c1C1CC1)N1CC[C@@H](Cn2cc(C(F)(F)F)cn2)C1` is reported as 91.8% (Trypanosoma cruzi; reporter mRNA translation, inhibitor, refers to: capped polyadenylated Renilla luciferase mRNA; cell-free extract; concentration not given; baseline: control RNA).
The tracer uptake of `COc1cccc(OC)c1-c1cc(C(=O)NC2(C(=O)O)C3CC4CC(C3)CC2C4)nn1-c1ccc(C(=O)NCCNC(=O)[C@H](CCCCNC(=O)[C@H](CC(C)C)NC(=O)C2OC2C(=O)O)NC(=O)CN2CCN(CC(=O)[O-])CCN(CC(=O)[O-])CCN(CC(=O)[O-])CC2)cc1C(C)C.[177Lu+3]` (mixture of isomers) is reported as 0.08 %ID/g (HT-29 tumour model; host not given, stomach; 72 h, tumour-bearing).
For `COCC1CN(C2CCN(c3cc(OC)c(Nc4ncc(Br)c(Nc5ccc6c(c5P(C)(C)=O)OCCO6)n4)cc3C)CC2)C1`, the Cmax was 685 ng/mL (EGFR-mutant NSCLC patients, plasma; oral, 150 mg single dose, geometric mean).
For `O=C1C2CC3CC1CC(C(=O)N1CCN(c4ccc([N+](=O)[O-])c5ncccc45)CC1)(C3)C2`, “revertant colony count” read 18 colonies/well (Salmonella typhimurium; Ames test; TA97a; 0.02 µg/well, without S9 activation).
`CC(C)Oc1ccc(CNCCC2(C(C)C)CCOC(C)(C)C2)cc1` (centres unmarked) gave a relative translation of 68% (Trypanosoma cruzi; reporter mRNA translation, inhibitor, refers to: capped polyadenylated Renilla luciferase mRNA; cell-free extract; concentration not given; baseline: control RNA).
Under “pseudo-first-order rate constant”, `O=CC1C(=O)Nc2ccccc21` (centres unmarked) is recorded as 0 h⁻¹ (reaction with N-acetyl-lysine, HPLC-MS; pH 10.2, added: N-α-acetyl-lysine).
`CNC(=O)C1CCCN(C(=O)C2CC3CCC2N3C(=O)[C@@H]2C[C@@H](O)CN2C(=O)NCc2cccc(Cl)c2F)C1` (mixture of isomers) has a remaining activity of 115% and 99.5% and 113% (Cytochrome P450 1A2 (CYP1A2, Homo sapiens, UniProt P05177); preincubation with NADPH; human; 5.56 µM; baseline: negative control).
For `COc1cccc(OC)c1-c1cc(C(=O)NC2(C(=O)O)C3CC4CC(C3)CC2C4)nn1-c1ccc(C(=O)N(C)CCOCCN(C)C(=O)[C@H](CCCCNC(=O)[C@H](CC(C)C)NC(=O)C2OC2C(=O)O)NC(=O)CN2CCN(CC(=O)[O-])CCN(CC(=O)[O-])CCN(CC(=O)[O-])CC2)cc1C(C)C.[177Lu+3]` (mixture of isomers), the tracer uptake was 1.1 %ID/g (HT-29 tumour model; host not given, stomach; 4 h, tumour-bearing).
The remaining peptide of `CCCC[C@H](NC(C)=O)C(=O)N[C@@H](CO)C(=O)N[C@H](C(=O)N1CCC[C@H]1C(=O)N[C@]1(C)CCCCCCC=CCCC[C@@](C)(C(=O)N[C@@H](Cc2ccccc2)C(=O)N[C@@H](CCCCN)C(=O)N[C@@H](CCCNC(=N)N)C(=O)N[C@@H](CC(C)C)C(=O)N[C@@H](CCC(N)=O)C(N)=O)NC(=O)[C@H](CCCNC(=N)N)NC(=O)[C@H](CCCC)NC(=O)[C@H](CC(C)C)NC(=O)[C@H](CCCNC(=N)N)NC(=O)[C@H](CCCNC(=N)N)NC(=O)[C@H](CCCNC(=N)N)NC1=O)[C@@H](C)O` is reported as 42.6% and 43.2% (proteinase K; LC-MS; 25 µM, 492.1 min, pH 7.4).
`CCN(CC)CC#CCNc1ccnc2cc(Cl)ccc12` has a revertants of 15 revertants/well and 19 revertants/well (Salmonella typhimurium; mini-Ames test; TA100; 62.5 µg/well, with rat liver S9).
With `N#C[C@@H]1CCCN1C(=O)CNC(=O)c1ccnc2ccc(OCCCN3CCN(C(=O)CCc4ccc5c(c4)CN4CCN6CC(=O)[O][68Ga-]([O]C(=O)C4)([O]5)[O]c4ccc(CCC(=O)N5CCN(CCCOc7ccc8nccc(C(=O)NCC(=O)N9CCC[C@H]9C#N)c8c7)CC5)cc4C6)CC3)cc12` the tracer uptake was 3.69 %ID/g (U-87 MG tumour model; host not given, liver; 1 h, tumour-bearing).

Some of these lines once more:
Under “pseudo-first-order rate constant”, `O=CC1C(=O)Nc2ccccc21` (centres unmarked) is recorded as 0 h⁻¹ (reaction with N-acetyl-lysine, HPLC-MS; pH 10.2, added: N-α-acetyl-lysine).
With `N#C[C@@H]1CCCN1C(=O)CNC(=O)c1ccnc2ccc(OCCCN3CCN(C(=O)CCc4ccc5c(c4)CN4CCN6CC(=O)[O][68Ga-]([O]C(=O)C4)([O]5)[O]c4ccc(CCC(=O)N5CCN(CCCOc7ccc8nccc(C(=O)NCC(=O)N9CCC[C@H]9C#N)c8c7)CC5)cc4C6)CC3)cc12` the tracer uptake was 3.69 %ID/g (U-87 MG tumour model; host not given, liver; 1 h, tumour-bearing).
`CNC(=O)C1CCCN(C(=O)C2CC3CCC2N3C(=O)[C@@H]2C[C@@H](O)CN2C(=O)NCc2cccc(Cl)c2F)C1` (mixture of isomers) has a remaining activity of 115% and 99.5% and 113% (Cytochrome P450 1A2 (CYP1A2, Homo sapiens, UniProt P05177); preincubation with NADPH; human; 5.56 µM; baseline: negative control).
